# Results collected from several papers.
# Each line is one published result; not all experiments were run side by side. ± gives the spread as reported.
# CHRM1: Muscarinic acetylcholine receptor M1 (CHRM1, Homo sapiens, UniProt P11229)
# UniProt P11229, sequence (whole entry, looked up): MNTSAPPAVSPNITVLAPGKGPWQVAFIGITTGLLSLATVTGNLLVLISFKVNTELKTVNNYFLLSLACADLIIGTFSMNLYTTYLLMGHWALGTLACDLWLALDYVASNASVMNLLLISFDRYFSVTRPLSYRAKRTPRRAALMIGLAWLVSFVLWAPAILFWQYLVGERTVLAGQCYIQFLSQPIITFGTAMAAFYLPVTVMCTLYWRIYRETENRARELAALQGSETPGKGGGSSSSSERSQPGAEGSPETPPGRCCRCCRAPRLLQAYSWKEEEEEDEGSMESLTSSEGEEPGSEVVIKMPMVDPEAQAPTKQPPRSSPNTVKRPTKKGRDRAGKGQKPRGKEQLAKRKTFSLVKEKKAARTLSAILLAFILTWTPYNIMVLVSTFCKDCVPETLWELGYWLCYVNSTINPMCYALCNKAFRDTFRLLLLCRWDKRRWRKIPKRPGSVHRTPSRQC
# T1: DNA hairpin, CGG duplex, TTTT loop; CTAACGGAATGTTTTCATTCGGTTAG
# UniProt P37231, sequence (whole entry, looked up): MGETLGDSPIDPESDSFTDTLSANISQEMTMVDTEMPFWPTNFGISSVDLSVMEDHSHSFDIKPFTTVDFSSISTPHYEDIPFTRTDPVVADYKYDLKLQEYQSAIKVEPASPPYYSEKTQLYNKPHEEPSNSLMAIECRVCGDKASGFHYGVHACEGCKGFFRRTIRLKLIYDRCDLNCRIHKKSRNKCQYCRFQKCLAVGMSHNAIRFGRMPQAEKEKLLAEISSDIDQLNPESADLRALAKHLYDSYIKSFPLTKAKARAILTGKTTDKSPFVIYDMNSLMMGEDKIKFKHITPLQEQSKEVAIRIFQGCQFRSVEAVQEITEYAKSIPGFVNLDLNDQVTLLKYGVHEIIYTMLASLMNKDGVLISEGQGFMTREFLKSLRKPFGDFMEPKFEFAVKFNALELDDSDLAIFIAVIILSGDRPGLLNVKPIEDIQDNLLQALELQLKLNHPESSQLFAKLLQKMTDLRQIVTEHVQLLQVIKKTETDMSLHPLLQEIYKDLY
# UniProt P31424, sequence (whole entry, looked up): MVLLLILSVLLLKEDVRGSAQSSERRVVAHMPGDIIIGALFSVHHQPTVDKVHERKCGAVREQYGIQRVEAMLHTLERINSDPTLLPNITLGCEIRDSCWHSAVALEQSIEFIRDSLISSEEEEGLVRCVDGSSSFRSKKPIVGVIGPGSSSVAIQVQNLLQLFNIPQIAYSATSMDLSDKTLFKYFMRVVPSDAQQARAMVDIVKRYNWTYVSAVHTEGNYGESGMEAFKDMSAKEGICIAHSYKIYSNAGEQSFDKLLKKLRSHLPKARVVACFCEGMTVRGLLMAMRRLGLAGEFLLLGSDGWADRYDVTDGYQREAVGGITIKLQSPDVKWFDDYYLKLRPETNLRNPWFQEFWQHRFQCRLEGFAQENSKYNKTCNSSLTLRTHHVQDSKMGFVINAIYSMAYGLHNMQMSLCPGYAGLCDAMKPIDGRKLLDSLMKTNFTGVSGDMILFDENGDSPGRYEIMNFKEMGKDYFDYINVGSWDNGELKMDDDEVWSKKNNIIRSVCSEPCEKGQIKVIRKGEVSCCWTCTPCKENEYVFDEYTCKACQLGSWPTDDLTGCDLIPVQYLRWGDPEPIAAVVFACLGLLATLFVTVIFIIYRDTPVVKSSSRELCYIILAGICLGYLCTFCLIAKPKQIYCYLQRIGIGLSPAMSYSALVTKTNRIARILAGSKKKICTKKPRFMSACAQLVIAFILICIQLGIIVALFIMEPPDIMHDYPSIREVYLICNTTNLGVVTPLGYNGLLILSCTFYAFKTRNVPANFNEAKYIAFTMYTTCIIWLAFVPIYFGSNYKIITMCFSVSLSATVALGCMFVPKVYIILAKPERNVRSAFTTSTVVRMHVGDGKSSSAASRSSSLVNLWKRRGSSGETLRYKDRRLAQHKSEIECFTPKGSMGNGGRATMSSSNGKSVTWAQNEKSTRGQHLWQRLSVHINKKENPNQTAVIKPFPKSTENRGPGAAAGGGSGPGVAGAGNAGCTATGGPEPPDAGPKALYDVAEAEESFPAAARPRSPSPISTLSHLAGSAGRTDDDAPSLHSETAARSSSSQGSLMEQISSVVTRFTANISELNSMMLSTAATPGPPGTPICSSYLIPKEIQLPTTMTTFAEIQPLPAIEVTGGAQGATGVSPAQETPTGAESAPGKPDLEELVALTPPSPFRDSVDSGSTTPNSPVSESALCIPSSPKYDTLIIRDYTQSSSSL
# UniProt P21980, sequence (whole entry, looked up): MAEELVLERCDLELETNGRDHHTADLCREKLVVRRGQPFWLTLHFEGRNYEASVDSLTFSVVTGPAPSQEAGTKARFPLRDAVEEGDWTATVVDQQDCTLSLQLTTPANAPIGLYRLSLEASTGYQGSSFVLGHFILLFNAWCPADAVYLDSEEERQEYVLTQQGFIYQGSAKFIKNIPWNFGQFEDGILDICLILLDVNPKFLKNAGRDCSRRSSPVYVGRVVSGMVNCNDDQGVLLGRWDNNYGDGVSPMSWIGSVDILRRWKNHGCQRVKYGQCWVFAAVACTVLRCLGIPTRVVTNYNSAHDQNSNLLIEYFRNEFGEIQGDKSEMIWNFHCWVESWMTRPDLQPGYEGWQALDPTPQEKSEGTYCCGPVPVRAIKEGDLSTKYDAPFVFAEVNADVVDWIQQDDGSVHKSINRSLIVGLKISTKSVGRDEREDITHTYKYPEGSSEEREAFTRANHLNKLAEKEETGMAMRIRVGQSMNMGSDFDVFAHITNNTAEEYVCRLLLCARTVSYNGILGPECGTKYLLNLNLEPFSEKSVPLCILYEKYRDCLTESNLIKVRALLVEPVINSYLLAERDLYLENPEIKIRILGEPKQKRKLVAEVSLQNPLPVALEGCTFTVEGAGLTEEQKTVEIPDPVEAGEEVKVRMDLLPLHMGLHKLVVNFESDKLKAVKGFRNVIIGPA
# UniProt P04406, sequence (whole entry, looked up): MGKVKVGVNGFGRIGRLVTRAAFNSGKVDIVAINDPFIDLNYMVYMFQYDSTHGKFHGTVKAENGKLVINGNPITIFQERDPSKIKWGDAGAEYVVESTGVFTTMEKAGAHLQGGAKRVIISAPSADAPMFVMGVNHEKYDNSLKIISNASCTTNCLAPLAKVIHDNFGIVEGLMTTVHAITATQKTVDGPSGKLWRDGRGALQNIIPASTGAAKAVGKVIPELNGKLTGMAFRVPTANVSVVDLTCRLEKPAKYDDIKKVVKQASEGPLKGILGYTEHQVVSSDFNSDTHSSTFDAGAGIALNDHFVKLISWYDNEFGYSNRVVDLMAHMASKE
# UniProt P31597, sequence (whole entry, unmodified, looked up): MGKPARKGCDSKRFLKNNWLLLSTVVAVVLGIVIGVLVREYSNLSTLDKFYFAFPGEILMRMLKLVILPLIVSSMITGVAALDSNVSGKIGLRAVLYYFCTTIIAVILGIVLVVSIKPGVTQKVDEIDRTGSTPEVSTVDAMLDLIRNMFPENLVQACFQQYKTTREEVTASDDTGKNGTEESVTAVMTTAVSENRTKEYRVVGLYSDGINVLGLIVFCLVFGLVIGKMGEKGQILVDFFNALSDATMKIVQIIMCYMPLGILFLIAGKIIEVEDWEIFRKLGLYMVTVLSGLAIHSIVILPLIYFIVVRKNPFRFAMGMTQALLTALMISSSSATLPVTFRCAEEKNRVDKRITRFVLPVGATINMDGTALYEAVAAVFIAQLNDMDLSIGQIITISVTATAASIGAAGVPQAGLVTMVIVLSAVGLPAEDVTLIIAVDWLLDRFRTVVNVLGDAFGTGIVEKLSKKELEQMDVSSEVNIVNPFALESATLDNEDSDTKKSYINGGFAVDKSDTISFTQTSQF
# UniProt P12369, sequence (whole entry, unmodified, looked up): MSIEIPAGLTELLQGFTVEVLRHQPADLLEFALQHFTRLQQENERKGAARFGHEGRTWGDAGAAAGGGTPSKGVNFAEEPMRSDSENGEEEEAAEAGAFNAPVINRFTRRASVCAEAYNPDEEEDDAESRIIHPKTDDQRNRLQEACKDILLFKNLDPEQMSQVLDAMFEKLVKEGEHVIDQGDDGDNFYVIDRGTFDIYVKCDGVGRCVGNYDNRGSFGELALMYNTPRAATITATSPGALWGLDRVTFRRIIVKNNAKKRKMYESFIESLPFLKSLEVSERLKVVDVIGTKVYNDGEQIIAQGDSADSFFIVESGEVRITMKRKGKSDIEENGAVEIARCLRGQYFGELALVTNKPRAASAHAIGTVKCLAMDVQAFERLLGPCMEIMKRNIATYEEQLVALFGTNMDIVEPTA
# UniProt P08173, sequence (whole entry, looked up): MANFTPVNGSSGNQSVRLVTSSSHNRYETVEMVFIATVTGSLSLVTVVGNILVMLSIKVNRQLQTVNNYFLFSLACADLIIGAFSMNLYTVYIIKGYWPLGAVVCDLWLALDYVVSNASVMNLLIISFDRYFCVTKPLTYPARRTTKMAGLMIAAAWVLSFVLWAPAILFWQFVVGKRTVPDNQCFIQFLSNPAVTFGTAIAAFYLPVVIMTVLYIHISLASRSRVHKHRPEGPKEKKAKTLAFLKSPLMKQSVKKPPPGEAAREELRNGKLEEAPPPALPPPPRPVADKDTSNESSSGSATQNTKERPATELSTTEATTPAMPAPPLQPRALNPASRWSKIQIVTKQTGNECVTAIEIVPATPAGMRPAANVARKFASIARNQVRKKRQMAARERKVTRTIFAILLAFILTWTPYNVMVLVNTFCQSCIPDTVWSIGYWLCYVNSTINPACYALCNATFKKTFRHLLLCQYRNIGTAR
# UniProt Q96RJ0, sequence (whole entry, looked up): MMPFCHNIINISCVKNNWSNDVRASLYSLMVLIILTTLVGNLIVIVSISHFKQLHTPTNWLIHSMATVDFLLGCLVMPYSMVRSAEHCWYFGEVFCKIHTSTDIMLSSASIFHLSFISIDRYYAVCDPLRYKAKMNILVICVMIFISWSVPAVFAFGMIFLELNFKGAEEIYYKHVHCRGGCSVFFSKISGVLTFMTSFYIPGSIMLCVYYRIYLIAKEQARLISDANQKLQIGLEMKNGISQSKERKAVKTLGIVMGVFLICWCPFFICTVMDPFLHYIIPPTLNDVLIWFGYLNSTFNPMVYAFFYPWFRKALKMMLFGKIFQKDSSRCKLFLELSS
Molecule,target,test,test system,setting,how to read,endpoint,result
N#Cc1c(C(F)(F)F)cc(-c2ccc(Cl)cc2)nc1SCC(=O)Nc1ncccn1,"TAAR1 (Homo sapiens, UniProt Q96RJ0)",agonist,,10 µM,,cAMP production change,-12.6%
Cc1ccc(COc2ccccc2-c2cc(=O)n(C3CCCCC3O)cn2)cn1 (stereo not drawn),CHRM1,"positive allosteric modulator, IP1 accumulation",CHO-M1 cells,"10 µM, 60 min, 37 °C, added: ACh","relative to: ACh alone, higher = stronger potentiation",ΔpEC50 of ACh,1.35 ± 0.16 log units
NASC,"GAPDH (Homo sapiens, UniProt P04406)",spectrophotometric Vmax,peptide,"10 µM, added: enzyme 10 nM",relative to: vehicle,enzyme activity,96.5 ± 6.15%
N[C@@H](CC(=O)O)C(=O)O,"Excitatory amino acid transporter 3 (SLC1A1, Oryctolagus cuniculus, UniProt P31597, D444E)",sodium dependence of anion current,Xenopus oocytes,"2 mM, added: thiocyanate 10 mM",,Hill coefficient,2.7 ± 0.4
O=C(O)c1ccccc1-c1ccc(Cn2c3ccccc3c3ccccc32)cc1,"PPARG (Homo sapiens, UniProt P37231)",,COS-7,"10 µM, 39 h",,Emax,25.6%
COC(=O)c1scc(C)c1NC(=O)C(C)N1CCCCC1 (stereo not drawn),"SCN10A (Homo sapiens, UniProt Q9Y5Y9)",cell membrane chromatography,,,higher = stronger binding,capacity factor k′,37
Nc1ncnc2c1nc(N1CCCCC1)n2[C@@H]1O[C@@H]2COP(=O)(O)O[C@H]2[C@H]1O,"cAMP-dependent protein kinase type II-beta regulatory subunit, holoenzyme with catalytic subunit (Prkar2b, Rattus norvegicus, UniProt P12369, S112A)","PKA holoenzyme activation, activator, fluorescence anisotropy",,,"relative to: RIIβ over RIα, higher = RIIβ-selective",selectivity ratio,0.3
C=CC(=O)NCCCC[C@H](NC(=O)OCc1ccccc1)C(=O)NCC(=O)OC,"TGM2 (Homo sapiens, UniProt P21980)",,,pH 6.5,,kinact,0.0242 ± 0.002 s⁻¹
Cn1cnc2ncn(Cc3nc(CCc4ccc(Cl)cc4)no3)c(=O)c21,"Trpa1 (Rattus norvegicus, UniProt Q6RI86)",item: unbound plasma concentration,rat,AITC-induced nocifensive behaviour,,in vivo over in vitro IC90,5.6 fold
Fc1ccc2nc(CCC#Cc3ccccn3)cn2c1,"Grm5 (Rattus norvegicus, UniProt P31424)","calcium mobilization, negative allosteric modulator",,"30 min, added: glutamate",,pKB,7.47 ± 0.07 -log M
COc1ccc2nc(NC(=O)c3ccncc3)sc2n1,"CHRM4 (Homo sapiens, UniProt P08173)","calcium mobilization, positive allosteric modulator",CHO expressing hM4 and Gqi5,"concentration not given, added: acetylcholine EC20",,activity,inactive
O=c1cc(-c2ccccc2OCc2ccc(-c3ncco3)cc2)ncn1C1CCCCC1O (stereo not drawn),CHRM1,"positive allosteric modulator, IP1 accumulation",CHO-M1 cells,"1 µM, 60 min, 37 °C, added: ACh","relative to: ACh alone, higher = stronger potentiation",ΔpEC50 of ACh,0.96 ± 0.13 log units
c1ccc2[nH]ccc2c1,"Dehaloperoxidase B, ferric (Amphitrite ornata, UniProt Q9NAV7)","substrate, HPLC",,"500 µM, 5 min, pH 7, 25 °C, 5% methanol, added: H2O2",,conversion,24.1%
Cc1ccc2ccc(NC(=O)CCNCCC(=O)Nc3ccc4ccc(C)nc4n3)nc2n1,"T1, DNA hairpin, CGG duplex, TTTT loop",SPR,,"apparent, kinetic fit",,Kd,350 nM
CC(C)n1cc(-c2ccc(COc3ccccc3-c3cc(=O)n(C4CCCCC4O)cn3)cc2)cn1 (stereo not drawn),CHRM1,"positive allosteric modulator, IP1 accumulation",CHO-M1 cells,"1 µM, 60 min, 37 °C, added: ACh","relative to: ACh alone, higher = stronger potentiation",ΔpEC50 of ACh,1.56 ± 0.09 log units

# A few entries again:
Molecule,target,test,test system,setting,how to read,endpoint,result
COc1ccc2nc(NC(=O)c3ccncc3)sc2n1,"CHRM4 (Homo sapiens, UniProt P08173)","calcium mobilization, positive allosteric modulator",CHO expressing hM4 and Gqi5,"concentration not given, added: acetylcholine EC20",,activity,inactive
O=c1cc(-c2ccccc2OCc2ccc(-c3ncco3)cc2)ncn1C1CCCCC1O (stereo not drawn),CHRM1,"positive allosteric modulator, IP1 accumulation",CHO-M1 cells,"1 µM, 60 min, 37 °C, added: ACh","relative to: ACh alone, higher = stronger potentiation",ΔpEC50 of ACh,0.96 ± 0.13 log units
